Published values of several laboratories.
Compare with care: the assays were run in different laboratories. Values joined by “and” are separate records of one study, mostly repeats; a detail may differ. ± gives the spread as reported.
UCHL1: Ubiquitin carboxyl-terminal hydrolase isozyme L1 (UCHL1, Homo sapiens, UniProt P09936)
BEST1: BEST1 (Homo sapiens, UniProt O76090)
ADRA2C: Alpha-2C adrenergic receptor (ADRA2C, Homo sapiens, UniProt P18825)
Voltage-dependent P/Q-type calcium channel subunit alpha-1A: Voltage-dependent P/Q-type calcium channel subunit alpha-1A (Homo sapiens, UniProt O00555)
T1: RNA aptamer del11, 5'-triphosphate, 2',3'-cyclic phosphate; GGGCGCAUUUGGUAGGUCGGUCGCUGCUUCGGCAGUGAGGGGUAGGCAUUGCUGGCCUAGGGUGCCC

SMILES	target	assay	test system	conditions	how to read	endpoint	value
CC(C)NC(=O)C(C#N)=Cc1ccc(C#N)cc1	UCHL1	covalent, intact protein LC-MS		12.5 µM		labelling	11.3%
Cc1ccc(C(=O)Nc2ccc3ccccc3c2)o1	Otop1 (Mus musculus, UniProt Q80VM9)	proton current, voltage ramp patch-clamp		10 µM, Cs+ bath cation		reversal potential	55.2 mV
CCN1CCN(c2cc(N3CCN(CC)CC3)nc(NCCNc3ccnc4cc(Cl)ccc34)n2)CC1	Nuclear receptor subfamily 1 group I member 3 (Homo sapiens, UniProt Q14994)	reporter gene, Gal4 hybrid reporter		20 µM	reference: vehicle	activation	1.5 fold
CC[C@@H](C)[C@@H](NC(=O)[C@@H](Cc1ccc(O)cc1)NC(=O)[C@H]1CCCN1C(=O)[C@@H](CCCNC(=N)N)NC(=O)[C@H](N)Cc1c[nH]cn1)C(=O)N[C@H](C)C(=O)N[C@H](Cc1c[nH]cn1)C(=O)N[C@H](CCCNC(=N)N)C(=O)N[C@@H](C(=O)N[C@H](Cc1ccc(O)cc1)C(=O)N[C@H](CO)C(=O)N[C@H](Cc1ccccc1)C(N)=O)C(C)C	Transferrin receptor protein 1 (Tfrc, Mus musculus, UniProt Q62351)	flow cytometry	DC2.4	48 h, pH 7.4, unit not given	reference: 0 h	surface TFRC expression	0.305
O=S(=O)(NCC(O)c1cc2ccccc2s1)c1cccc(Cl)c1O (stereo not drawn)	malate dehydrogenase	enzyme activity, inhibitor		200 µM, pH 7.0, 1% DMSO, aggregation counter-screen		remaining activity	100%
CCCCCCCCC(=O)c1cc(O)c(O)c(O)c1	Vitamin D3 receptor (VDR, Homo sapiens, UniProt P11473)	reporter gene, Gal4 hybrid reporter		10 µM	reference: vehicle	activation	3.41 fold
N#CC(=Cc1ccncc1)C(=O)Nc1cccc(Cl)c1	UCHL1	covalent, intact protein LC-MS		12.5 µM		labelling	36.5%
Cc1ncsc1-c1ccc(CNC(=O)[C@@H]2C[C@@H](O)CN2C(=O)[C@@H](NC(=O)C2(F)CC2)C(C)(C)C)c(OCCOc2ccc(CN3CCN(c4cc(-c5ccccc5O)nnc4N)CC3)cc2)c1	SMARCA2 bromodomain, human	ternary complex binding, TR-FRET competition		added: VCB R69A mutant		cooperativity factor alpha	3.3
N[C@H](COP(=O)(O)O)Cc1c[nH]cn1	Act2	substrate, coupled phosphate release				Km	18 ± 1 µM
CN(C)C(=O)C(CCN1CCC(O)(c2ccc(Cl)cc2)CC1)(c1ccccc1)c1ccccc1	Calcium-activated potassium channel subunit alpha-1, with LRRC26 γ1 subunit (KCNMA1, Homo sapiens, UniProt Q12791)	ion current, inside-out patch, mean of individual fits	BKα/γ1 channel	10 µM, added: nominally 0 Ca2+		V1/2	-7 ± 5 mV
O=c1nc(SCc2cc(F)cc(C(F)(F)F)c2)nc(SCc2ccc3nc(Cl)ccc3c2)[nH]1	TOP2A (Homo sapiens, UniProt P11388)	ATPase activity		31.25 µM, added: ATP 0.05 mM		ATP hydrolysis rate	0.29 µM/min and 0.425 µM/min
COc1cc(/C=C/c2ccc(O)cc2)cc(OC)c1	O-methyltransferase (Sorghum bicolor, UniProt A0A1B6PFV1)	ITC		added: SAH+		-TΔS	0.37 kcal/mol
COc1ccc2c(c1)CC(C)CC2NS(=O)(=O)c1cccc(Cl)c1O (stereo not drawn)	malate dehydrogenase	enzyme activity, inhibitor		200 µM, pH 7.0, 1% DMSO, aggregation counter-screen		remaining activity	100%
O=C(O)c1ccc(Nc2ncc3c(n2)-c2ccc(Cl)cc2C(c2c(F)cccc2F)=NC3)cc1	FGFR3(h)	kinase activity		1 µM		remaining activity	86%
Nc1nc(SCc2ccc(Cl)cc2)nn1S(=O)(=O)c1ccc([N+](=O)[O-])cc1	LYPLAL1 (Homo sapiens, UniProt Q5VWZ2)	enzyme activity, activator, gel-based ABPP	purified protein	concentration not given, added: FP-rhodamine	reference: DMSO	probe labeling increase	2.1 fold
O=C(O)c1ccc([N+](=O)[O-])cc1	BEST1	whole-cell patch clamp	HEK293 transiently expressing channel	concentration not given, membrane potential -100 mV		current density	-104 pA/pF and -130 pA/pF and -70 pA/pF and -74.4 pA/pF and -93.6 pA/pF and -44.2 pA/pF and -42.5 pA/pF
Cc1nc(CSc2nc(SCc3ccc(C(C)C)cc3)nc(=O)[nH]2)cs1	DNA topoisomerase 2-alpha, ATPase domain (TOP2A, Homo sapiens, UniProt P11388)	1H STD NMR, item: H1' and H5' protons		protein to ligand ratio 100		STD amplification factor	1.57
Nc1ncnc2c1ncn2[C@@H]1O[C@H](COP(=O)(O)CP(=O)(O)OP(=O)(O)O)[C@@H](O)[C@H]1O	P2X purinoceptor 1 (P2RX1, Homo sapiens, UniProt P51575, S286A)	saturation binding	HEK293	130 nM		specific binding	11900 CCPM and 6020 CCPM and 5040 CCPM
Cc1cc(Oc2ncccc2CN2CCN(c3ccccc3Cl)CC2)ccc1-c1c(C)c(=O)[nH]c(=O)n1C	ADRA2C	binding, radioligand binding		added: [3H]rauwolscine	reference: Ki alpha2A over Ki alpha2C	selectivity ratio	7
O=C(NC1CCC1)c1ccc2nc(-c3cccc(NS(=O)(=O)NCCN4CCCCC4)c3)cn2c1	NEK10 (Homo sapiens, UniProt Q6ZWH5)	enzyme activity		10 µM		remaining activity	94%
O=C(O)C1CCCNC1 (stereo not drawn)	SLC6A6 (Homo sapiens, UniProt P31641, G62A)	binding, microscale thermophoresis		61 nM, room temperature, added: 50 nM labelled protein	higher = more binding	normalised MST signal	-0.0708
C#CCCC1(CC[C@H](NC(=O)NCCCCCCNC(=O)NCCNC(=O)COc2cccc([C@@H](CCc3ccc(OC)c(OC)c3)OC(=O)[C@@H]3CCCCN3C(=O)C(=O)C(C)(C)CC)c2)C(N)=O)N=N1.O=C(O)C(F)(F)F	FKBP1A (Homo sapiens, UniProt P62942)	photoaffinity labeling, in-gel fluorescence, item: Alexa Fluor 647 click label		0.016 µM, UV irradiation 365 nm	reference: probe over FKBP12 signal, higher = more labeling	normalized labeling ratio	0.094
O=C(O)c1ccccc1S(=O)(=O)NCc1ccccc1C1CCC1	malate dehydrogenase	enzyme activity, inhibitor		200 µM, pH 7.0, 1% DMSO, aggregation counter-screen		remaining activity	86%
N#CC(=Cc1ccc(Cl)cc1Cl)C(=O)Nc1nccs1	UCHL1	covalent, intact protein LC-MS		12.5 µM		labelling	31.4%
CCS(=O)(=O)N1CC(CC#N)(n2cc(-c3ncnc4[nH]ccc34)cn2)C1	ORM1 (Homo sapiens, UniProt P02763)	FRET		1.2 µM		spectral overlap integral	5.39e-15 cm³ L/mol
C[C@H]1O[C@H](O[C@H]2[C@H](O)[C@@H](O)[C@@H](O[C@H]3[C@H](O)[C@@H](O)C(O)O[C@@H]3CO)O[C@@H]2CO)[C@H](O)[C@@H](O)[C@@H]1N[C@H]1C=C(CO)[C@@H](O)[C@H](O)[C@H]1O (stereo partly drawn)	α-amylase isoenzymes	native PAGE densitometry, item: abnormal band		1 mg/mL		band share	100%
CN1CCN(c2cc(-c3ccncc3)c(-c3ccc4ccccc4c3)nn2)CC1	LHCGR (Homo sapiens, UniProt P22888)	agonist, FLIPR		12.5 µM		activation	4.2%

SMILES	target	assay	test system	conditions	how to read	endpoint	value
O=C(CCl)Nc1ncc(Cc2ccccc2Cl)s1	UCHL1	covalent, intact protein LC-MS		12.5 µM		labelling	38.9%
O=C(COP(=O)(O)O)[C@@H](O)[C@H](O)[C@H](O)COP(=O)(O)O	ADH5 (Homo sapiens, UniProt P11766)	thermal proteome profiling	HepG2 cell lysate	concentration not given, 57 over 37 °C, mean	reference: compound over control	thermal stability ratio	0.577
CC[C@H](C)C(=O)O[C@H]1C[C@H](O)C=C2C=C[C@H](C)[C@H](CC[C@@H](O)C[C@@H](O)CC(=O)O)[C@H]21	Voltage-dependent P/Q-type calcium channel subunit alpha-1A	ion current, antagonist, automated patch clamp				IC30	> 30000 nM
CC[C@@H]1[C@H](F)C(=O)N[C@@H]1COc1nccc2cc(C(N)=O)c(OC)cc12	PTK2B (Homo sapiens, UniProt Q14289)	ATP probe binding, KiNativ profiling, item: activation loop probe site	THP-1 cell lysate	0.01 mM		inhibition	-0.9%
C=CC(=O)N1CCC(COCC(=O)N2CCN(c3nc(-c4cnc(N)nc4C(F)F)nc(N4CCOC[C@@H]4C)n3)CC2)CC1	PDGFRA (Homo sapiens, UniProt P16234)	KINOMEscan		1 µM		remaining binding	86%
O=c1nc(SCc2cc(F)cc(C(F)(F)F)c2)nc(SCc2ccc3sccc3c2)[nH]1	TOP2B (Homo sapiens, UniProt Q02880)	decatenation		15.6 µM, replicate 1		decatenated DNA	0.76%
Nc1ncnc2c1ncn2[C@@H]1O[C@H](CO[P@](=O)(O)O[P@](=O)(O)O[P@@](=O)(O)S)[C@@H](O)[C@H]1O	GUK1 (Homo sapiens, UniProt Q16774)	ITC		molar ratio 1.955		ΔH	-0.453 kcal/mol
N#CC(=Cc1cccc2ccccc12)C(=O)NC1CC1	UCHL1	covalent, intact protein LC-MS		12.5 µM		labelling	10.8%
Nc1nc2c(ncn2[C@@H]2O[C@H](COP(=O)(O)OP(=O)(O)OP(=O)(O)O)[C@@H](O)[C@H]2O)c(=O)[nH]1	T1, RNA aptamer del11, 5'-triphosphate, 2',3'-cyclic phosphate	ITC				Kd	10.9 nM
Cc1cnc(C(=O)NCCNC(=O)Cn2[nH]c(=O)c3ccccc3c2=O)cn1	TNKS (Homo sapiens, UniProt O95271)	enzyme activity, inhibitor				ligand efficiency	0.51
CC(C)COc1ccc(CNC(=O)N(Cc2ccc(F)cc2)C2CCN(C)CC2)cc1	Voltage-dependent P/Q-type calcium channel subunit alpha-1A	ion current, antagonist	HEK293	30 µM		inhibition	97%
OC[C@H]1OC(O)[C@H](O)[C@@H](O)[C@@H]1O (stereo partly drawn)	Hexokinase-3 (HK3, Homo sapiens, UniProt P52790, E254A)	substrate inhibition		mutant E254A, partial substrate inhibition model, added: ATP 20 mM		V∞/Vmax ratio (b)	0.32 ± 0.07
Cc1cc(Oc2ncccc2CN2CCN(c3ccccc3[N+](=O)[O-])CC2)ccc1-c1c(C)c(=O)[nH]c(=O)n1C	ADRA2C	binding, radioligand binding		added: [3H]rauwolscine	reference: Ki alpha2B over Ki alpha2C	selectivity ratio	9
CNCCCC12CCC(c3ccccc31)c1ccccc12	Voltage-dependent P/Q-type calcium channel subunit alpha-1A	ion current, antagonist	HEK293	10 µM		inhibition	51%
COC(=O)C(C#N)=Cc1c(Oc2ccc(Cl)c(C)c2)nc2ccccn2c1=O	UCHL1	covalent, intact protein LC-MS		12.5 µM		labelling	10.7%
O=C(O)c1cccc(C(=O)O)n1	Beta-lactamase L1 (Stenotrophomonas maltophilia, UniProt P52700)	enzyme activity, inhibitor		added: nitrocefin		koff	0.00133 ± 0.000333 s⁻¹
CCCN1CCCC[C@H]1C(=O)Nc1c(C)cccc1C	Voltage-dependent P/Q-type calcium channel subunit alpha-1A	ion current, antagonist	HEK293	10 µM		inhibition	5%
O=C(O)c1ccc(O)cc1	BEST1	whole-cell patch clamp	HEK293 transiently expressing channel	concentration not given, membrane potential 100 mV		current density	47.3 pA/pF and 63 pA/pF and 42.3 pA/pF and 42.6 pA/pF and 126 pA/pF and 42.8 pA/pF and 73.9 pA/pF
Cc1cc(Oc2ncccc2CN2CCN(c3ccc(Cl)cc3)CC2)ccc1-c1c(C)c(=O)[nH]c(=O)n1C	ADRA2C	binding, radioligand binding		added: [3H]rauwolscine	reference: Ki alpha2A over Ki alpha2C	selectivity ratio	7
CCCc1ccc(-c2csc(NC(=O)CCl)n2)cc1	UCHL1	covalent, intact protein LC-MS		12.5 µM		labelling	14.2%
COc1cc(-c2cncc3c2CN(C)Cc2cc(N4CCNCC4)ccc2-3)cc(OC)c1OC	CLK1 (Homo sapiens, UniProt P49759)	kinase activity		1 µM, human enzyme, added: ATP 10 µM	reference: DMSO control	remaining activity	112%
CC1=C(/C=C/C(C)=C/C=C/C(C)=C/C=O)C(C)(C)CCC1	Rhodopsin (RHO, Bos taurus, UniProt P02699, I189T)	retinal entry, Trp FRET	lipid bicelles	28 °C, I189T mutant	reference: wild-type rhodopsin	relative kon	0.73 ± 0.18
Cc1cccc(N2CC(C(=O)O)CC2=O)c1 (stereo not drawn)	Leucine-rich repeat serine/threonine-protein kinase 2, WD40 domain (LRRK2, Homo sapiens, UniProt Q5S007)	binding, affinity selection mass spectrometry			reference: other proteins in batch	log fold enrichment	0.0948
Nc1ncnc2c1ncn2[C@@H]1O[C@H](COP(=O)(O)OP(=O)(O)O)[C@@H](O)[C@H]1O	GUK1 (Homo sapiens, UniProt Q16774, S18A)	binding, ITC		added: GMP		-TΔS	0.14 kcal/mol
Cn1ncc(S(=O)(=O)NC(c2ccccc2)c2ccc(Cl)cc2Cl)c1C(=O)O (stereo not drawn)	malate dehydrogenase	enzyme activity, inhibitor		200 µM, pH 7.0, 1% DMSO, aggregation counter-screen		remaining activity	94%
N#CC(=Cc1ccccc1OC(F)F)C(=O)Nc1ccccc1F	UCHL1	covalent, intact protein LC-MS		12.5 µM		labelling	37.4%
Cc1c(C(=O)Nc2ccccc2C(=O)O)oc2c1C(O)CC(C)(C)C2 (stereo not drawn)	B4GALT1 (Homo sapiens, UniProt P15291)	enzyme activity, inhibitor, UDP-Glo		100 µM	lower means stronger inhibition	luminescence	67800 a.u.
